# Measurements of several laboratories.
# Every numbered part comes from another study and shows a few of its results, in no order.

# Sample 1 — method: universal PBM; form: double-stranded DNA, one strand shown; sample: in vitro; tested at: not given; direction: higher = stronger binding
# Target: Sal-like protein 4, full length isoform B (SALL4, Homo sapiens, UniProt Q9UJQ4-2, residues 1-616)
# Notes: 8-mer, flanks averaged, mean of replicates
# Residues (chain): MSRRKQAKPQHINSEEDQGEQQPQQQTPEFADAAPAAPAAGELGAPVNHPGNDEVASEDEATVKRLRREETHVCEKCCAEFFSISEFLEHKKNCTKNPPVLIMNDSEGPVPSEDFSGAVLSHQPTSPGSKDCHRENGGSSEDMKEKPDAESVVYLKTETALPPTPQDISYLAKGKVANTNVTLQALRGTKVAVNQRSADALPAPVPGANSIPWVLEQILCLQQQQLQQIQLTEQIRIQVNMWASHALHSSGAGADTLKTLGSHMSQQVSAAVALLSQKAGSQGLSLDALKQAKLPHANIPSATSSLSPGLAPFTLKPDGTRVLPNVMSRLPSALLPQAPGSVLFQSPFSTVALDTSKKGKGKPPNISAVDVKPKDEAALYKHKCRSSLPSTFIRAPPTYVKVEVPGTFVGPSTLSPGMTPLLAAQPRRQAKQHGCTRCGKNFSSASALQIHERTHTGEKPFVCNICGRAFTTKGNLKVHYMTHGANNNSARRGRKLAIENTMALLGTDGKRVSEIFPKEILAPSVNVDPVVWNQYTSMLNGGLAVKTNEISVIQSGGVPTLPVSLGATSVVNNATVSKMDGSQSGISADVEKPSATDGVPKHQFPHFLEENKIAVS
Strand,E-score
CAAGTTGC,-0.0399
CGAAATTC,0.104
CGCATGTC,-0.0629
AGTTTTAC,0.0891
ATCAATGG,0.0424
GCCGCGGA,-0.354
TTACTCAA,0.239
ACAGCAAC,-0.0314
CTTGCACC,-0.152
TCCAATCA,0.0226
AATGCTTA,0.17
AGTAAGCA,0.113
AAGTGACG,-0.0556
TGATCCAA,0.162
AGAGGTCC,-0.136
CGATCCGC,-0.277
GGCGAGAC,-0.302
AGTGAATC,-0.025
ATGCGTTA,0.133
AACCACTC,-0.137
CATCTCAC,-0.112
GAGAATCC,-0.238
ACGGGGCC,-0.316
ACACCCAT,0.102
ACGAACAG,0.0717

# Sample 2 — method: protein-binding microarray; form: double-stranded DNA, one strand shown; sample: in vitro; tested at: not given; direction: higher = stronger binding
# Target: Protein max, full length (MAX, Homo sapiens, UniProt P61244-2, residues 1-151)
# Notes: k-mer, scored over probes, only values ≥0.25
Strand,E-score
ACCCGCCC,0.266
GCGTGAAC,0.345
CACGATGG,0.3
CAGCACGA,0.354
CGACATGC,0.359
GCACGCAC,0.368
CCCCTGAC,0.283
CACGCCCC,0.353
CGCGCAAC,0.25
ACGCAACA,0.274
GTGGAGCA,0.251
CACATGGA,0.476
AGTCACGA,0.355
CGCGTGAG,0.406
CAGCGCGG,0.291
CCACGCCA,0.359
GAAAGCAC,0.267
CATGCCGC,0.406
ACGCTGTC,0.316
GACCACGC,0.445
CATGCTTA,0.435
CACGCATA,0.288
CGTGCGCA,0.4

# Sample 3 — method: RNAcompete; form: RNA; sample: in vitro; tested at: 20 nM; notes: 7-mer, probes averaged, single round; baseline: mean of 7-mers; direction: higher = stronger binding
# Target: PABPC1L2, full length, GST fusion (mouse, UniProt A0ABA7IW68)
# Residues (chain): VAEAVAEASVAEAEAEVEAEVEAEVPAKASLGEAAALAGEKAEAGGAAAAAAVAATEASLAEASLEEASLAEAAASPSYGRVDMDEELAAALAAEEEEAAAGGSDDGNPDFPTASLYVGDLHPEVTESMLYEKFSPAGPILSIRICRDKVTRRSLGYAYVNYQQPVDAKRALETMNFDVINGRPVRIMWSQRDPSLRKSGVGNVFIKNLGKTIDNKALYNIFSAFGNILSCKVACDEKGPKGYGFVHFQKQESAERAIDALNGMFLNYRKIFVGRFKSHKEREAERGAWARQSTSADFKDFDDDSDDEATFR
Strand,7-mer Z-score
GGGCGCA,0.401
ACCCGUG,-0.238
UAUAGCG,-0.253
AAUUGAU,0.166
UAGUUAU,-0.195
UCUUGGC,-0.211
UCAGUCC,-0.345
UCAGUCU,-0.293
ACCUCCA,-0.222
ACCUGGC,-0.26
UAUGUCG,-0.275
UAUUCCU,-0.338
CGGUUGU,-0.385
UGCCAUG,-0.124
UUCCCAU,-0.405
GGGAGAA,0.37
CUAUCCU,-0.309
CGUGGCA,0.0551
AUCCAUG,-0.0428
CAGGUAA,0.2

# Sample 4 — method: protein binding microarray; form: double-stranded DNA, one strand shown; sample: in vitro; tested at: not given; baseline: not given; direction: higher = stronger binding
# Target: Histone acetyltransferase KAT6A, winged helix 1, GST fusion (KAT6A, Homo sapiens, UniProt Q92794, residues 1-85)
# Notes: 8-mer, flanks averaged, mean of 2 arrays, mostly near background
# Residues (chain): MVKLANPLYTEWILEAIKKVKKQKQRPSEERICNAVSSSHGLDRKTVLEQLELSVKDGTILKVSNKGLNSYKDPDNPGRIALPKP
Strand,E-score
AAGATTGG,-0.109
GTGCCCTA,-0.0843
ATTGGGAA,-0.201
CCCGACTC,0.0664
GGGACGAA,0.107
AGGGCCGC,0.373
CGGTACGC,0.375
ACGAGTTA,-0.0727
AGTTTTCA,-0.0617
AGGACGAC,-0.251
GGCATTTA,-0.0368
GCAGTAGA,-0.0867
AATATGCA,-0.119
AATATCTA,-0.31
CTTGAGAC,-0.0556
CCGGTCAA,0.245
CTACTAGC,0.0264
GTTCGGAA,-0.005
GTTCCTGA,-0.165
ACCTTGTA,-0.14
ATGGATCG,0.138
AGGGCACG,-0.0294
AAGGGCCA,-0.13
GACGAGTA,-0.0536

# Sample 5 — method: RNA Bind-n-Seq; form: RNA; sample: in vitro; tested at: 365 nM; baseline: no-protein control; direction: higher = stronger binding
# Target: RNA binding protein fox-1 homolog 2, RRM domain, GST-SBP tag (RBFOX2, Homo sapiens, UniProt O43251-10, residues 100-194)
# Notes: natural RNA segment, single round, ends assumed
# All sequences stand within: GGGAGUUCUACAGUCCGACGAUC … UGGAAUUCUCGGGUGCCAA
# Construct (chain): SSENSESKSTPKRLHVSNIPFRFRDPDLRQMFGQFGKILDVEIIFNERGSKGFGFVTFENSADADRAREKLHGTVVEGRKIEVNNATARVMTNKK
Strand,RBNS enrichment (R)
UCUGUUCAAAUGCAUUGAGAGACAUGACCUCAGAAUACCUAGUGUGAACAUUCUAAGUUGUACUGUUCUUAACAGACAUGAAAGAUCUCAGGUAAAUAAAAAAAAUUUUA,0.542
CUUUUACAUUCCCUUGCUCCGUUACCUAACGACUUAAACCAGUUCCUUGCUUCCCCCAUCCCUACACAUUGUUCCUAAGUCUGAUUUUACCUCCCCAAUACCAGCCAGUA,1.47
CAUGUUCCGUAAUGUGCCCACAGCAAACCCCACGGAGCCGGGAAUCAGACGGGUUCCGGGGGCCUCAGAGGUGAUCCGGGAGUCGAGCAGCACAACAGGGAUGGUCGUCG,0.366
AAGGAGGGGAGCCUUUGGGGGGCCACCCGGGGCCUGGACCUAUGCAGGGAGGCCACGUCCCACCCCACCUCUUGUUUCUGGGUCCCUGCUCCCCUUUGGGGGUGUGUGUG,0.756
GGUAAAUUAUAAGAUCCAGAUGUUAGUGUCUAGAAUUAGCUGUUUAGAAUUCAGAGGGGACAUAUGUUUUAACUUUGUCAUAUAUUAGCAAGAAUUGGUCUACUGUGAUG,3.19
GAGUUCCAGGACAGCCAGAGCUAUACAGAGAAACCCUGUCUUGGAAAAAAAAAAAAAAGACUCAGCAAUGUUCACAUUCUUCAUGUCUAAUCCCUCCUUGCCCACCCAUU,0.561
UGGGAAGAAGUGGAGUUUUUUGGUUAUUAGGUUAAUUUUCUAGUAAAACACGUUGCCUGUUUUCAGUUAACACUGGUAAUGCCAUUUUAAUAUAUGGCUUUUUCAAAUCA,0.388
CCUGUUGGACAGGAUUGAUUGUUCGCAGUCUUAGACCAACACUUCAGUCAGAAAUGUUACUGGGAGGAGGAAAGGAAAAUCACUUUUUUUCCUCCAUGUGGAAAUGAGGA,0.242
GGGGGCAGUGCCGUCAUCUCCCUGGAGGGCAAGCCUUUGUGAGCCCCUUCUGGCCCCCUGCCUGGAGCAUCUGGCAGCCCCACACCUGCCCUUGGGGGUUGCAGGCUGCC,0.701
GAUAAAACUGUGUAAACCACAUAAUUUUUGUACAUCCCAAAGGAUGAGAAUGUGACCUUUAAGAAAAAUGAAAACUUUUGUAAAUUAUUGAUGAUUUUGUAAUUCUUAUG,0.601
AGAAAAAUAAAACAAGCUGCAUUUAUAGACUUGCUUGGAAUUGAAAUGAACAUAGCCAGUUCCUACCCAACCCUGCCCUGCCUUUUUUUUUUUUUUUAAAGUGUGGUCCU,0.546
CUGCACUGUGUGACCUCUCUGUUGCCAGGGUGGGCAAGGGCUCAGCCACUCUGCCCACUAAAGUGCCCCACCAUGAAACAUUCUGGAGUUGGCCAUCCCAAAUUUCAUCG,0.257

# Sample 6 — method: RNA Bind-n-Seq; form: RNA; sample: in vitro; tested at: not given; baseline: input RNA pool; direction: higher = stronger binding
# Target: RING finger protein unkempt homolog, zinc fingers 1-6, GST-SBP tag (UNK, Homo sapiens, UniProt Q9C0B0, residues 30-357)
# Notes: RNA with constant flanks, human-mouse chimeric sites, ends assumed
# All sequences stand within: GGGAGUUCUACAGUCCGACGAUC … CAACAGAGGAUUGAGCAUCA
# Construct (chain): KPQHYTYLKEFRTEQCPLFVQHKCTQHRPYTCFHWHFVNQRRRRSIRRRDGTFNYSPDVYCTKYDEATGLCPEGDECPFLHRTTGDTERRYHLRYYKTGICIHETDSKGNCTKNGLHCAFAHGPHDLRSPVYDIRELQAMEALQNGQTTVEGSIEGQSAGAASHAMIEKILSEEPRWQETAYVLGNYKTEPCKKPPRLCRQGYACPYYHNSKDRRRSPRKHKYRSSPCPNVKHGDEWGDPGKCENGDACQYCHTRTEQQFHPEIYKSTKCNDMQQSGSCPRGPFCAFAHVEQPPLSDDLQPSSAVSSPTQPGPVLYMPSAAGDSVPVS
Strand,bound/input enrichment [ratio]
UUCCCAACCUCCCGCCUCACCCCACCCCCGCUUUUUGGAAAGUUUUUGGCGUUUCUUUUCCUUCCCCAUACAAAGUGAUUACAGUUUCCCCCGCAAGUGGGGCUUGAAGGGCUUGACGGA,0.556
UCUUUAAAAAAAAAAUUACCUUUUCUGACAGUGCUUUCCCUCCCAUAGGUCCAGGUUCAAGCUCAAAGAGCAAAGGCUUUGCACGGAUCUGAUGAUGCUGAUGAAGAAAGAUUUCUGAGA,0.506
CUGUGACCACAAGAUCCUGAAGUUUGAGCAGCUGAAGUUGACUCCCUCUCCUUGCCUGAACCCCCCCCUUUUGUUCCCCCAUCCCCCAGUGUCGGCUGAGAUGUUGCCUCUGCACGGUUC,1.98
AUAGAUGAAAUUGAUGUGGACCAGGAAGGAAUUGCUGAAAUGAUCCUGGAUGAAAAUGCUAUUGCUCAGGUCCCACGCCCUGGCACAUCUUUGAAACUCCCUGGCACUAACCAAACAGGA,0.367
CUGUGCGGGUGACUGUCCUGGAGUGGCUGGAGUUCCCGCCGGAGCGCGCGCAGGUUAAUUUUAGAAAAUGCCAAGUAGGAAGUUUGUUGAGGGUGAAGUGGUCAGAGGCCGAUGGCCUGG,3.38
UAUAAUAAUCAUGAAAUUCGUUCUGGAAAGCACAUUGGUGUCUGCAUCUCAGUUGCCAACAAUAGGCUUUUUGUGGGCUCUAUUCCUAAGAGUAAAACCAAGGAGCAGAUUCUUGAGGAA,0.436
GUGCCCUCCUUCUCGCUCCUGCGGGGCAGCUGGGAACCAUUCCGGGACUGGUACCCUGCACACAGCCGCCUCUUCGAUCAAGCUUUCGGGGUGCCCCGGUUGCCCGAUGAGUGGUCGCAG,0.0549
GCUCUUGGGAAUGUAAUCAGCGCCUUGGGAGACAAGAGCAAGAGAGCCACCCAUGUCCCUUACAGAGACUCUAAGCUGACAAGACUCCUACAGGAUUCCCUUGGGGGUAACAGCCAAACC,0.125
CUCAUGGCUGCAGAAACAGGAAGUGGAAAAACUGGUGCAUUUAGUAUUCCCGUUAUCCAGAUAGUGUAUGAAACUCUGAAAGACCAACAGGAAGGCAAGAAAGGGAAAACAACUAUUAAA,0.76
CUCAUGGCUGCAGAAACAGGAAGUGGCAAAACUGGUGCAUUUAGUAUUCCCGUUAUCCAGAUAGUUUAUGAAACUCUGAAAGACCAACAGGAAGGAAAGAAAGGGAAAACAACUAUUAAA,0.764
UUAAUCCCCUUUACUGCUCCCCCACUUGUCAUGCUGAUAACAAAGUCUUAUAUCCCCGUCCUAGCUUUCACUCAGAUGGCUUAUGGAGCCGGUUUCCUAGCUUUCUUGGGAGGGAUCAGA,0.318

# Excerpt of the above (sample 3):
Strand,7-mer Z-score
ACCCGUG,-0.238
UAUAGCG,-0.253
AAUUGAU,0.166
UAGUUAU,-0.195
UCUUGGC,-0.211
UCAGUCC,-0.345
UCAGUCU,-0.293
ACCUCCA,-0.222
ACCUGGC,-0.26
UAUGUCG,-0.275
UAUUCCU,-0.338
CGGUUGU,-0.385
UGCCAUG,-0.124
UUCCCAU,-0.405
